Measurements pooled from the literature.
Lines come from different studies, so protocols differ. ± gives the spread as reported.

Compound	cell line	test	setting	how to read	quantity	value
C/C1=C\CC[C@@]2(C)O[C@H]2[C@H]2OC(=O)C(C)[C@@H]2CC1 (stereo partly drawn)	NCI/ADR-RES	cell growth, inhibitor, Alamar blue	–	–	IC50	> 500 µM
Nc1ccc(/C=C/C(=O)N2CCc3c(oc4c(-c5ccc(F)cc5)cc(-c5ccc(C(=O)N6CCC(F)(F)CC6)cn5)cc34)C2)cn1	MIA PaCa-2	annexin V/PI flow cytometry	0.5 µM, 72 h	–	apoptotic cells	25.9%
Cc1[nH]c2cc(Cl)cc(Cl)c2c1CCN	SNU-1 (KRAS G12D)	cell viability, CellTiter-Glo	72 h	–	IC50	33 ± 1.6 µM
CC[C@H](C)[C@@H]1NC(=O)CNC(=O)[C@@H]2Cc3c([nH]c4ccccc34)SC[C@H](NC(=O)CNC1=O)C(=O)N[C@@H](CC(=O)NCc1cn(CCN)nn1)C(=O)N1C[C@H](O)C[C@H]1C(=O)N[C@@H]([C@@H](C)[C@@H](O)CO)C(=O)N2	CHO	cell growth or viability, MTS	72 h	–	EC50	~5 µM
CC[C@H](C)[C@@H]1NC(=O)[C@H](CCCCN)NC(=O)[C@H](CCCCN)NC(=O)[C@H](C)NC(=O)[C@H](C(C)C)NC(=O)[C@H](C)NC(=O)[C@H](CC(C)C)NC(=O)[C@H](CC(C)C)NC(=O)[C@H](C)NC(=O)[C@H](CCCCN)NC(=O)[C@H](CC(C)C)NC(=O)[C@H](CC(N)=O)NC(=O)[C@H](CC(C)C)NC(=O)[C@@H](N)CSSC[C@@H](C(N)=O)NC(=O)[C@H](CC(C)C)NC1=O	U251MG	MTT	24 h	–	IC50	8.56 µM
O=C(O)CC[C@H](NC(=O)N[C@@H](CCCCNC(=O)[C@H](Cc1ccc2ccccc2c1)NC(=O)[C@H]1CC[C@H](CNC(=O)CNC(=O)CNC(=O)CNC(=O)CN2CCN(CC(=O)O)CCN(C(CCC(=O)NCCC[P+](c3ccccc3)(c3ccccc3)c3ccccc3)C(=O)O)CCN(CC(=O)O)CC2)CC1)C(=O)O)C(=O)O (stereo partly drawn) [terbium-161 labelled]	PC-3 PIP	–	–	relative to: applied activity	mitochondrial uptake	5.4 ± 0.1%
C=CCc1cc2c(c(OC)c1OC)OCO2	HCT-116	cell growth or viability	72 h	–	GI50	> 250 µM
O=C(O)CC[C@H](NC(=O)N[C@@H](CCCCNC(=O)[C@H](Cc1ccc2ccccc2c1)NC(=O)[C@H]1CC[C@H](CNC(=O)CN2CCN(CC(=O)O)CCN(C(CCC(=O)NCCC[P+](c3ccccc3)(c3ccccc3)c3ccccc3)C(=O)O)CCN(CC(=O)O)CC2)CC1)C(=O)O)C(=O)O (stereo partly drawn) [terbium-161 labelled]	PC-3 PIP	–	concentration not given, efflux	–	cell retention of activity	76%
CC[C@H](C)[C@H](NC(=O)[C@H](CCCCN)NC(=O)[C@H](CCCCN)NC(=O)[C@H](C)NC(=O)[C@@H](NC(=O)[C@H](C)NC(=O)[C@H](CC(C)C)NC(=O)[C@H](CC(C)C)NC(=O)[C@H](C)NC(=O)[C@H](CCCCN)NC(=O)[C@H](CC(C)C)NC(=O)[C@H](CC(N)=O)NC(=O)[C@@H](N)CC(C)C)C(C)C)C(=O)N[C@@H](CC(C)C)C(N)=O	MDA-MB-435S	MTT	24 h	–	IC50	27.7 µM

Some of these lines once more:
Compound	cell line	test	setting	how to read	quantity	value
Nc1ccc(/C=C/C(=O)N2CCc3c(oc4c(-c5ccc(F)cc5)cc(-c5ccc(C(=O)N6CCC(F)(F)CC6)cn5)cc34)C2)cn1	MIA PaCa-2	annexin V/PI flow cytometry	0.5 µM, 72 h	–	apoptotic cells	25.9%
